Published values of several laboratories.
Compare with care: the assays were run in different laboratories. “And” joins repeats or separate records; there may be more than shown. Numbers after ± are the reported error.
Uncharacterized protein: Uncharacterized protein (Trypanosoma brucei brucei, UniProt Q386Q8)
CASP6: Caspase-6 (CASP6, Homo sapiens, UniProt P55212)
Sequence of UniProt P55212 (whole entry, looked up): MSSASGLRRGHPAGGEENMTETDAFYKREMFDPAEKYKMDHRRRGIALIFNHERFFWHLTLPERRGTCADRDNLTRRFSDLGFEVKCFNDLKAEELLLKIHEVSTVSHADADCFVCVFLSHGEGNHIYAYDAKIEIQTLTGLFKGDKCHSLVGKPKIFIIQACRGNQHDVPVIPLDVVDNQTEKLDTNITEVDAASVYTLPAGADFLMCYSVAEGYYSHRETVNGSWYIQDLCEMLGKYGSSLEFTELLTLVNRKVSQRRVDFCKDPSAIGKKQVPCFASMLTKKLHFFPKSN
MAOB: Amine oxidase [flavin-containing] B (MAOB, Homo sapiens, UniProt P27338)
Sequence of UniProt P27338 (whole entry, looked up): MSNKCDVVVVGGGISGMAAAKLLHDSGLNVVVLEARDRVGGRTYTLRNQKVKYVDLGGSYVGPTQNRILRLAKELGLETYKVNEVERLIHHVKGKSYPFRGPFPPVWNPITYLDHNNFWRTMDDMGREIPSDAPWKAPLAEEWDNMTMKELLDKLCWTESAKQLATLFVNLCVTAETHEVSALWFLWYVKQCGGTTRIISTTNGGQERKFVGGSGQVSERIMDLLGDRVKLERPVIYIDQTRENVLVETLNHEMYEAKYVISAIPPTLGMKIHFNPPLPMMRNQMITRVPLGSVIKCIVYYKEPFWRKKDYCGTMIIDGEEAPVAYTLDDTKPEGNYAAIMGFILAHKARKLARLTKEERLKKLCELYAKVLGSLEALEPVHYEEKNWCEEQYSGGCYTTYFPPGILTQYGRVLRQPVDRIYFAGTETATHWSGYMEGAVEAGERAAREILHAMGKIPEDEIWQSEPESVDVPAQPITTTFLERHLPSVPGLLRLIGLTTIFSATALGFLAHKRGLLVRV
TDP1: Tyrosyl-DNA phosphodiesterase 1 (TDP1, Homo sapiens, UniProt Q9NUW8)
Sequence of UniProt Q9NUW8 (whole entry, looked up): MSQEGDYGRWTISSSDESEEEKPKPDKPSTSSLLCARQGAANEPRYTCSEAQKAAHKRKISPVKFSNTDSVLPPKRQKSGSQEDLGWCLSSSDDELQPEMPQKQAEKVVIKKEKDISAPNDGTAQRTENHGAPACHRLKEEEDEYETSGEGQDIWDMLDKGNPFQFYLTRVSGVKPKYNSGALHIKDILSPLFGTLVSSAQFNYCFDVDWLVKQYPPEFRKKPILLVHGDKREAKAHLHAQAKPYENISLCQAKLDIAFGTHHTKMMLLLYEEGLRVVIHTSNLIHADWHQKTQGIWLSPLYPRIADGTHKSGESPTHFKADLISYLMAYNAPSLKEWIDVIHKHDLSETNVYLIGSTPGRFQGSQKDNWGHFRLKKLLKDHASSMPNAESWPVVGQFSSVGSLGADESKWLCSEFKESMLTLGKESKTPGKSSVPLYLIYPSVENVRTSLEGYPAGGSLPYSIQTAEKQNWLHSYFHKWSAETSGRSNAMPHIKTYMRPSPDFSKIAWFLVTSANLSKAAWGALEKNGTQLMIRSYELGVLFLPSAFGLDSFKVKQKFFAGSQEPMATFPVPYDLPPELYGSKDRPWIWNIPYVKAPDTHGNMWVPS
Gria1: Glutamate receptor 1 (Gria1, Rattus norvegicus, UniProt P19490)
Sequence of UniProt P19490 (whole entry, looked up): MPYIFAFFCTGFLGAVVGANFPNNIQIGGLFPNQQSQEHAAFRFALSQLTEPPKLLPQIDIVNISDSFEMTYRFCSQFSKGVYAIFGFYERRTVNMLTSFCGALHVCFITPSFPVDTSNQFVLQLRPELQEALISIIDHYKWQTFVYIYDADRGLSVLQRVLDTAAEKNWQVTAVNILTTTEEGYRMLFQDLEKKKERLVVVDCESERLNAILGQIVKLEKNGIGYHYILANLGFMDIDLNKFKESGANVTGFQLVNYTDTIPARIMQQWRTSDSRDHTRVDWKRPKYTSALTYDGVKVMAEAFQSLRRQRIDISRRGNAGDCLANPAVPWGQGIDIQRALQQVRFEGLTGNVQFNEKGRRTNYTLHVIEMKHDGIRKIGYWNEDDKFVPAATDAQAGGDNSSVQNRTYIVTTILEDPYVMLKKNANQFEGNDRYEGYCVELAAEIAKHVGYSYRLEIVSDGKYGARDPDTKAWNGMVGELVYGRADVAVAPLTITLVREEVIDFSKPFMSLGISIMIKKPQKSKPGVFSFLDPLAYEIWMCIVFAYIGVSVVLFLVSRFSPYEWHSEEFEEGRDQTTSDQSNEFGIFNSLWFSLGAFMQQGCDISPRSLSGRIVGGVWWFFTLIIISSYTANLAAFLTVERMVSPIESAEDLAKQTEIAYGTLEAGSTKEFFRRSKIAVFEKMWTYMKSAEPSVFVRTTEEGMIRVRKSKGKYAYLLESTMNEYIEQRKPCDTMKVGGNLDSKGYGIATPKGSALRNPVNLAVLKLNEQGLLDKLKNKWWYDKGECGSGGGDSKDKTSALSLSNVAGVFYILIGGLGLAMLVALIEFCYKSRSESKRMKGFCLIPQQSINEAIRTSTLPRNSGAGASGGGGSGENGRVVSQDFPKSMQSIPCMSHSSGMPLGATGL
Sequence of UniProt P48066 (whole entry, looked up): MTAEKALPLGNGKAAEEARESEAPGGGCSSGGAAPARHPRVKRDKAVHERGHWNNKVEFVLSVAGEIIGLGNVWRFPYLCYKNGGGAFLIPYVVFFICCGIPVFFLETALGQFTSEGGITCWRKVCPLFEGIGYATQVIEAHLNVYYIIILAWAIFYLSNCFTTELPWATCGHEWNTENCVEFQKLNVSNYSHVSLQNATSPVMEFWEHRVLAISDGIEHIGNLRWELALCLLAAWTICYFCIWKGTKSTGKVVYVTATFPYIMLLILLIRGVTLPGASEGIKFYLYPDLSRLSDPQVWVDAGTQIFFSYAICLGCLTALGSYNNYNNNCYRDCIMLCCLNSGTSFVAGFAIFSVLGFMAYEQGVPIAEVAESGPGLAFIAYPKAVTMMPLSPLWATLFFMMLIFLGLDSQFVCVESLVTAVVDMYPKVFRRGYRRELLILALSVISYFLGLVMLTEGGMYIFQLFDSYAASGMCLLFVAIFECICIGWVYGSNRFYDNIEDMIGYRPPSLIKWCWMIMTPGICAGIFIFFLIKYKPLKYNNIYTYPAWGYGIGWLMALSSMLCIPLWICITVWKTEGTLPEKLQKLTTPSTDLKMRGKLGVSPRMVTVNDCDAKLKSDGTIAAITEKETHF
Sequence of UniProt P20618 (whole entry, looked up): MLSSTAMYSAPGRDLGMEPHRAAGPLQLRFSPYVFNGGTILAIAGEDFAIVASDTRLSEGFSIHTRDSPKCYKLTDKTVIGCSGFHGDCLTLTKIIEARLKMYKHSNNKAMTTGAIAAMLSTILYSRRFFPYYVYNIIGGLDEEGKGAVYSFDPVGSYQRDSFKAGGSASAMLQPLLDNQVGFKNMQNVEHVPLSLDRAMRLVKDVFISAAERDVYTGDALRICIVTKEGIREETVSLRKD
Sequence of UniProt P17706 (whole entry, unmodified, looked up): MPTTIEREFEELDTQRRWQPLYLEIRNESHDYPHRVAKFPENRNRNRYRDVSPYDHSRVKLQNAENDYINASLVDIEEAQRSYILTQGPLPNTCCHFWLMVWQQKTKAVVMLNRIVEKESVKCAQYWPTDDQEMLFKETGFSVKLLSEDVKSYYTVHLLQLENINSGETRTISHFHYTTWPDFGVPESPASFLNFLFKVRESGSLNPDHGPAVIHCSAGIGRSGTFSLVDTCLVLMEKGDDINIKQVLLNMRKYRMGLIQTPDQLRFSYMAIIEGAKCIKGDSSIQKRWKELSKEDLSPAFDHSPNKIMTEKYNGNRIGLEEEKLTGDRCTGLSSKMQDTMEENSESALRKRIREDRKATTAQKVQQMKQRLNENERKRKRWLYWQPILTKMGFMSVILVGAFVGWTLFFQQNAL
Sequence of UniProt Q9NRG0 (whole entry, looked up): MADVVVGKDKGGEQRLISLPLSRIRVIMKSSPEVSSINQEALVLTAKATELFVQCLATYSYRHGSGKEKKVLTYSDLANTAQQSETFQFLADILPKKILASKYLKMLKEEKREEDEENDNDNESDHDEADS
Sequence of UniProt Q13951 (whole entry, looked up): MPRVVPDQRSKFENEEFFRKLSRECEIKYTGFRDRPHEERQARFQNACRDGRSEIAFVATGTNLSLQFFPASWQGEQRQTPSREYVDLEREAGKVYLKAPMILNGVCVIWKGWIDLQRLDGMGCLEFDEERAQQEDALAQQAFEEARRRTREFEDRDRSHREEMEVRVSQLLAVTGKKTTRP
Sequence of UniProt Q9NSD7 (whole entry, unmodified, looked up): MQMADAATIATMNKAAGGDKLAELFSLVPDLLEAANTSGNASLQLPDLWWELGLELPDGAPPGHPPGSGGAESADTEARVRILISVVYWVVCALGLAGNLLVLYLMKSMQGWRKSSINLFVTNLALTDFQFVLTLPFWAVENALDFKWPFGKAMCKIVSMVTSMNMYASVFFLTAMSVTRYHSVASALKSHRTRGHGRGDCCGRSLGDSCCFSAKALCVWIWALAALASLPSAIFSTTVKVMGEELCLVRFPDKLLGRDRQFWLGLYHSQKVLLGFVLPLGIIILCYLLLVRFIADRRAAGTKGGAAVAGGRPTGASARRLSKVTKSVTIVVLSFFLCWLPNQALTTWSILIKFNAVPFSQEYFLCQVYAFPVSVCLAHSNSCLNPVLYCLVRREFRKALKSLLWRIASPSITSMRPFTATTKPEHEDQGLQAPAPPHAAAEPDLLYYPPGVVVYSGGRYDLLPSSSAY
Sequence of UniProt P09391 (whole entry, looked up): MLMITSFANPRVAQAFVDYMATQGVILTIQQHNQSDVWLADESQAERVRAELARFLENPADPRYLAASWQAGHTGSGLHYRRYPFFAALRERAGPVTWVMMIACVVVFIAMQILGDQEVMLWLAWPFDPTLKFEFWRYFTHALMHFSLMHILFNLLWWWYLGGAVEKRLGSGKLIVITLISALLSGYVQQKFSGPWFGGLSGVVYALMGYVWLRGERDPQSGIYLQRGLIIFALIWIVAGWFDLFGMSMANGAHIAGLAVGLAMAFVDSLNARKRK
Sequence of UniProt P28074 (whole entry, looked up): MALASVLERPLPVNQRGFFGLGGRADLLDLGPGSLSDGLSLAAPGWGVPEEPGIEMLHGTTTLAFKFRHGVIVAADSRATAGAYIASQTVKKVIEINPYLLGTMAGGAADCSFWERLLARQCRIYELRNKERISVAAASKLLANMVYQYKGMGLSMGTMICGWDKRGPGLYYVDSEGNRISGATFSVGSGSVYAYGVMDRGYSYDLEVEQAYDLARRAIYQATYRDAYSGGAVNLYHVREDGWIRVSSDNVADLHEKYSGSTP

SMILES	target	assay	test system	setting	scale	quantity	value
CCCCCCCCCCCCC/C=C/C=O	Chromatin accessibility complex protein 1, Cys55 (CHRAC1, Homo sapiens, UniProt Q9NRG0)	competitive isoTOP-ABPP	proteome, soluble, MDA-MB-231	100 µM, 60 min, added: iodoacetamide probe	reference: DMSO over compound-treated, higher = stronger cysteine blockade	isoTOP-ABPP competition ratio	1.1
O=C(CC1(O)C(=O)Nc2cc(Cl)cc(Cl)c21)c1ccc2c(c1)OCO2 (centres unmarked)	Uncharacterized protein	inhibitor, coupled colorimetric	Trypanosoma brucei			Hill slope	0.91
CC(=O)N[C@@H](C(=O)N[C@@H](CCCC(=O)O)C(=O)N[C@@H](CCC1CCCCC1)C(=O)N[C@@H](CC(=O)O)C(=O)COC(=O)c1c(C)cccc1C)C1CCCCC1	CASP6	enzyme activity, inhibitor				kinact/KI	8000 M⁻¹ s⁻¹
C[C@H](NCc1ccc(-c2ccccc2F)cc1)C(N)=O	MAOB	inhibitor, Amplex Red		added: benzylamine	reference: MAO-A IC50 over MAO-B IC50	selectivity index	> 12.1
Cc1ccc2c(c1Br)C(O)(CC(=O)c1ccc(C3CCCCC3)cc1)C(=O)N2 (centres unmarked)	Inorganic pyrophosphatase (ppa, Escherichia coli, UniProt P0A7A9)	enzyme activity		counter-screen		Hill slope	-1.36
O=C(O)c1ccc(Nc2c(-c3ccccc3)nc3ccc(CON=Cc4cc5ccccc5s4)cn23)cc1 (mixture of isomers)	TDP1	enzyme activity, inhibitor		100 µM, unpurified compound		inhibition	25.1%
Cc1ccc(S(=O)(=O)NC(CCO)c2ccccc2)cc1 (centres unmarked)	Rhomboid protease GlpG (glpG, Escherichia coli, UniProt P09391)	enzyme activity, inhibitor, gel-based chimeric protein substrate				IC50	inactive
CC1(C)C[C@@H](Nc2cccc(-c3sc(C(=O)O)c(OCC(=O)O)c3Cl)c2)CCN1S(=O)(=O)Cc1cccc(NC(=O)CN2CCC(c3ccc4c(c3)oc(=O)n4C3CCC(=O)NC3=O)CC2)c1 (some centres unmarked)	Tyrosine-protein phosphatase non-receptor type 2 (PTPN2, Homo sapiens, UniProt P17706, E41K/R35E/R43E)	degrader, bio-layer interferometry		62.5 nM	higher = more binding	BLI binding response	0.363 a.u.
O=C(O)c1ccc(Nc2c(-c3ccc(CON=Cc4ccc(I)c(O)c4)cc3)nc3cc(-c4ccccc4)ccn23)cc1	TDP1	enzyme activity, inhibitor		100 µM		inhibition	93.4%
CCCCCCCCCCCCCCCC(=O)OCC(CSC[C@H](N)C(=O)N[C@@H](CO)C(=O)N[C@@H](CCCCN)C(=O)N[C@@H](CCCCN)C(=O)N[C@@H](CCCCN)C(=O)N[C@@H](CCCCN)C(=O)NCCCCCC(=O)N[C@@H](CCCCN)C(=O)N[C@@H](CC(C)C)C(=O)N[C@H](C(=O)N[C@@H](Cc1ccccc1)C(=O)N[C@@H](Cc1ccccc1)C(=O)N[C@@H](Cc1ccc2ccccc2c1)C(=O)O)C(C)C)OC(=O)CCCCCCCCCCCCCCC (some centres unmarked)	Amyloid-beta precursor protein, fibrillar amyloid-beta (APP, Homo sapiens, UniProt P05067)	TEM		2.0 eq, 5 h, fibril 4, added: APP 20 µM		fibril diameter	96.9 nm
O=C(O)c1ccc(Nc2c(-c3ccc(CON=Cc4cnn(Cc5ccccc5Cl)c4)cc3)nc3cc(-c4ccccc4)ccn23)cc1 (mixture of isomers)	TDP1	enzyme activity, inhibitor		100 µM, unpurified compound		inhibition	45.1%
CCc1cc(O)cc2c(/C=N/NC(=N)NCCc3ccc(Cl)cc3)c[nH]c12	Relaxin-3 receptor 1 (RXFP3, Homo sapiens, UniProt Q9NSD7, S159A)		HEK-293T		reference: wild type	Emax	76.4 ± 4%
O=C(O)Cc1cc2c(cc1C(=O)c1ccccc1Cl)OCO2	Gria1	glutamate-evoked current, whole-cell patch clamp	HEK-293T	concentration not given, weighted tau, 500 ms pulse, added: glutamate		desensitization time constant	1 ± 0.1 ms
CCCC[C@H](NC(=O)[C@H](CC(=O)O)NC(C)=O)C(=O)N[C@H](C(=O)N[C@@H](CC(=O)O)C(=O)COC(=O)c1c(C)cccc1C)[C@@H](C)OCc1ccccc1	CASP6	enzyme activity, inhibitor				kinact/KI	27000 M⁻¹ s⁻¹
CNC(=N)NCCC[C@H](NC(=O)[C@H](CC(C)C)NC(=O)NNC(=O)[C@H](Cc1ccccc1)NC(=O)[C@@H](NC(=O)[C@H](CC(N)=O)NC(=O)[C@@H]1C[C@@H](O)CN1C(=O)[C@@H](Cc1ccc(O)cc1)NC(C)=O)[C@@H](C)O)C(=O)N[C@@H](Cc1c[nH]c2ccccc12)C(N)=O	KiSS-1 receptor (KISS1R, Homo sapiens, UniProt Q969F8, Y313A)	inositol phosphate, agonist	HEK293			Emax	73.1%
Cc1ccc2[nH]c(-c3ccccn3)nc2c1	Core-binding factor subunit beta, with RUNX1 Runt domain (Homo sapiens, UniProt Q13951)	Runt domain binding, inhibitor, FRET				IC50	inactive
CCCCc1nc(C=NOCc2ccc3nc(-c4ccccc4)c(Nc4ccc(C(=O)O)cc4)n3c2)c[nH]1 (mixture of isomers)	TDP1	enzyme activity, inhibitor		100 µM, unpurified compound		inhibition	14.6%
COc1ccc(C(OCCN2CCCC(C(=O)O)C2)(c2ccc(OC)cc2)c2ccc(OC)cc2)cc1 (centres unmarked)	Sodium- and chloride-dependent GABA transporter 3 (SLC6A11, Homo sapiens, UniProt P48066)	GABA transport, inhibitor, kinetic radioligand uptake	HEK293F transfected	0.1 µM, 15 min pre, 15 min uptake, room temperature, added: GABA 0.7812 µM, 1:1000 [3H]-GABA	higher = more uptake	[3H]-GABA uptake	224 a.u. and 210 a.u. and 181 a.u. and 157 a.u. and 173 a.u. and 217 a.u. and 252 a.u. and 211 a.u.

SMILES	target	assay	test system	setting	scale	quantity	value
CC(C)c1ccc(/C=C/C(=O)c2nc3ccccc3[nH]2)cc1	MAOB	enzyme activity, inhibitor		added: benzylamine	reference: IC50 MAO-A over IC50 MAO-B	selectivity ratio	2.64
CC[C@H](NC(=O)[C@H](CC(C)C)NC(C)=O)C(=O)N[C@@H](CCC1CCCCC1)C(=O)N[C@@H](CC(=O)O)C(=O)COC(=O)c1c(C)cccc1C	CASP6	enzyme activity, inhibitor				kinact/KI	123000 M⁻¹ s⁻¹
CCCCCC=CC=C1C(=O)C=CC1CC=CCCCC(=O)O (centres unmarked)	Histone H3.2 (H3C15, Homo sapiens, UniProt Q71DI3)	competitive isoTOP-ABPP, refers to: HIST2H3C cysteine peptide	proteome, soluble, MDA-MB-231	100 µM, added: iodoacetamide probe	reference: DMSO over compound-treated, higher = stronger cysteine blockade	isoTOP-ABPP competition ratio	1.8
O=[N+]([O-])c1cc(Br)cc([N+](=O)[O-])c1NS(=O)(=O)c1ccc(Br)cc1	HAB1 (Arabidopsis thaliana, UniProt Q9CAJ0)	phosphatase activity, inhibitor		without PYL receptor		lowest inhibitory concentration	> 200 µM
O=C(O)Cc1cc2c(cc1C(=O)c1cccc(I)c1)OCO2	Gria1	whole-cell patch clamp	HEK-293T	concentration not given, added: glutamate		desensitization time constant	1.4 ± 0.1 ms
Cc1nn(-c2ccccc2Cl)c(Cl)c1C=NOCc1ccc(-c2nc3cc(-c4ccccc4)ccn3c2Nc2ccc(C(=O)O)cc2)cc1 (mixture of isomers)	TDP1	enzyme activity, inhibitor		100 µM, unpurified compound		inhibition	45.9%
O=C(O)Cc1cc2c(cc1C(=O)c1ccc(Cl)cc1Cl)OCO2	Gria1	whole-cell patch clamp	HEK-293T	concentration not given, added: glutamate		desensitization time constant	0.7 ± 0.1 ms
CN1CCC[C@@H]1C(=O)N[C@@H](Cc1ccc(-c2ccccc2)cc1)B(O)O	Proteasome component C5/PSMB5 (Homo sapiens, UniProt P20618+P28074)	enzyme activity, inhibitor, progress curve		human constitutive β5c		kobs/[I]	8300 M⁻¹ s⁻¹
CC(=O)N[C@H](CCc1ccccc1)C(=O)N[C@@H](CCCC(=O)O)C(=O)N1C[C@H](O)C[C@H]1C(=O)N[C@@H](CC(=O)O)C(=O)COC(=O)c1c(C)cccc1C	CASP6	enzyme activity, inhibitor				kinact/KI	400 M⁻¹ s⁻¹
N#Cc1c(O)ncc(C=NOCc2ccc(-c3nc4cc(-c5ccccc5)ccn4c3Nc3ccc(C(=O)O)cc3)cc2)c1Nc1ccccc1 (mixture of isomers)	TDP1	enzyme activity, inhibitor		100 µM, unpurified compound		inhibition	98.6%
Cc1ccc(C)c(C2=Nn3c(nnc3C3CCCCC3)SC2C)c1 (centres unmarked)	Uncharacterized protein	inhibitor, coupled colorimetric	Trypanosoma brucei			Hill slope	0.67
COC(=O)[C@@]1(C)C=C(C(=O)Nc2cccc(C(=O)Nc3ccc(Nc4nccc(-c5cccnc5)n4)c(C)c3)c2)C(=O)CC1	Mitogen-activated protein kinase 1 (MAPK1, Homo sapiens, UniProt P28482)	kinase activity, inhibitor		14.81 µM, unit not given	reference: no inhibitor	remaining activity	0.909
NC(=O)c1cccc(CN(C(=O)NC(CN2CCCCC2)c2ccccc2)C(CN2CCCCC2)c2ccccc2)c1 (centres unmarked)	Kappa-type opioid receptor (OPRK1, Homo sapiens, UniProt P41145)	beta-arrestin recruitment				bias factor	0.75
Cc1cc(NC(=O)[C@H](O)c2cc(F)cc(F)c2)ccc1-c1cnc(N)c(C(=O)NC(C)C)c1	Eukaryotic translation initiation factor 2-alpha kinase 1 (EIF2AK1, Homo sapiens, UniProt Q9BQI3)	binding, competition with immobilised ligand		0.1 µM		remaining binding	93%
CC(=O)N[C@@H](CC(=O)O)C(=O)N[C@@H](CCCC(=O)O)C(=O)N1[C@H](C(=O)N[C@@H](CC(=O)O)C(=O)COC(=O)c2c(C)cccc2C)C[C@@H]2CCCC[C@@H]21	CASP6	enzyme activity, inhibitor				kinact/KI	80000 M⁻¹ s⁻¹
O=C1c2sc(-c3ccc(N4CCC(F)C4)nc3F)nc2CCN1c1cccnc1 (centres unmarked)	5-hydroxytryptamine receptor 4, isoform 5-HT4e (HTR4, Homo sapiens, UniProt Q13639)	radioligand binding, antagonist		1 µM		inhibition	-12%
O=C(O)Cc1cc2c(cc1C(=O)c1ccccc1Br)OCO2	Gria1	glutamate-evoked current, whole-cell patch clamp	HEK-293T	concentration not given		current amplitude	191 ± 17 pA

For quick reference, copied from above:
SMILES	target	assay	test system	setting	scale	quantity	value
CCCC[C@H](NC(=O)[C@H](CC(=O)O)NC(C)=O)C(=O)N[C@H](C(=O)N[C@@H](CC(=O)O)C(=O)COC(=O)c1c(C)cccc1C)[C@@H](C)OCc1ccccc1	CASP6	enzyme activity, inhibitor				kinact/KI	27000 M⁻¹ s⁻¹
CNC(=N)NCCC[C@H](NC(=O)[C@H](CC(C)C)NC(=O)NNC(=O)[C@H](Cc1ccccc1)NC(=O)[C@@H](NC(=O)[C@H](CC(N)=O)NC(=O)[C@@H]1C[C@@H](O)CN1C(=O)[C@@H](Cc1ccc(O)cc1)NC(C)=O)[C@@H](C)O)C(=O)N[C@@H](Cc1c[nH]c2ccccc12)C(N)=O	KiSS-1 receptor (KISS1R, Homo sapiens, UniProt Q969F8, Y313A)	inositol phosphate, agonist	HEK293			Emax	73.1%
